Published values collected from several papers.
Every numbered part comes from another study and shows a few of its results, in no order.

Sample 1
Target: RING finger protein unkempt homolog, zinc fingers 1-6, SBP tag (UNK, Homo sapiens, UniProt Q9C0B0, residues 30-357)
Chain of UniProt Q9C0B0 (30-357, looked up): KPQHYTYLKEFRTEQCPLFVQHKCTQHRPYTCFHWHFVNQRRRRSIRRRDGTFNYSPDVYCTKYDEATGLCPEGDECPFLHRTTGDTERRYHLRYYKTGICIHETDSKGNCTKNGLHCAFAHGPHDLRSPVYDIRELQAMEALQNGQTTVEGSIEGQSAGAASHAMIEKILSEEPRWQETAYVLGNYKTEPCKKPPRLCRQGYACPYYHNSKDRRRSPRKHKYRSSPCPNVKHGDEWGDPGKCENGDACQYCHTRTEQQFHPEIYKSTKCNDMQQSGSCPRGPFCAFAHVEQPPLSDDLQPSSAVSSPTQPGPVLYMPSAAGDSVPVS
Technique: RNA Bind-n-Seq
Form: RNA
Sample: in vitro
Concentration: 100 nM
Notes: RNA with constant flanks, vertebrate orthologous sites, ends assumed
Baseline: input RNA pool
Direction: higher = stronger binding
Endpoint: bound/input enrichment
Shared flanks, not repeated: GGGAGUUCUACAGUCCGACGAUC … CAACAGAGGAUUGAGCAUCA
CUGGGCGUCCUCUCUGGGGGGCCGCUGGCCUCUUAGUGUGUUUCAUUUUUGACCUUGACAUAGUAGAUAGGCUUGUGGUUUUUUUAAUUUAAAGAUAUUAAGACUUAAUUCACUAAAAUU: 0.354 ratio
GUCCAGAAAUGGCCCCAUCCCACCUGUUUAUUCUGUAAACUACUACCUGUAAAUACUGUUUAGCAUUCCAAUUGUCACAAAGUUAAUUUUUAUUAAAUUAUAUUUCCUAGUCUAAUAAAA: 1.62 ratio
GCACAUGCCGCUAUCACCAAAAGCAAACUGCCACUUUUCAAAUUUCAUUCAGAGCUGUUUUAGUGUUUCCUAUUCCCUAACCUUCCCACUACUUUCAGUGAUGAAAUAGCCUAAGUUGUC: 1.44 ratio
UUGUUUUGUACAGGGCAUUCUCUGUACGAAUUUGUUGUGGUUAUAAAACAAUUAGAAAAACAGCUUACAUUUGUAUUUAUUUUCUAUUCCAUACCUCUGCCCCAUGUUUUUUCUCCUCAA: 0.481 ratio
AGGGACGCUUUGAUGUAAAAAUUGAAGUUAAGAGCUGAUCACAAGCACAAAUCUUUCCCACUAGCCAUUUAAAAAGUUAAAAAAGAUACAAAAACAAAAACCUACUAGUCUUGAAUAAAC: 1.69 ratio
AAUAGUUUUAAGCUUGUUUGCACAGCUUUUUUUUUCCAUUGGAAAUGGAAUCCAUUGCCUUAGGUCUUUUUAAUAGUGUAUUGUUAUUGUUGGGCUGGCUCUACGCUUGAAAACCAGUUU: 1.95 ratio
ACCCCGAUUUUAGAUGUGAUAUAUAGGCUUUCAUUCCAGUUUGUUUUGUCUUUUCUUGUUUAGAUAUCAACCUUUUAAAUUCUUGCAUUUUAGUAAGAAAGCUAUCUUUUUAUGGAUGUU: 0.994 ratio
AGAAAAUUUUAACCAAGAAUCUGAAGGUAGAAAUACAGGACCGUGGUUAUCUUCCUCACUUAGAAAUAGAUGCACACCUUUGUUCUCCAGAAGGAGACGAGAGGGACGAGAUGAAUCUUC: 0.526 ratio
GGGACAGUCUAGUUAAGGUAGUAACCAUUAAUUUAUUUUAAUAAAUGAUGAAAAUCAUAUUAGUACUAAGUUAGGUUGGAGAAUUUAAAUAUCUUUUAGAUGAUUCUAAAAAUAAAUCCU: 0.508 ratio
CCUCCUGAACUUCUCUUGCUUUCAAGCUGUGGCUGUUUCAGAUACUGGUUUUAUUUUCUUUGCAGUUUUCCCCUGUUUCCCACCUUUCUCCCCUUCUUUCCAAGGUUUGACUCAUGGAUU: 0.774 ratio
AUCUCUCAUUUUAUAUGUCCAAAAAUGGCUUUGACUUUUUAAGCAAUUGCUAGUUUUAAUUAGCUCUGCCCUCGUGAGGACUUAUUAUAGUUCACCACAAACCGAUAACUGUCUGAAUUA: 0.521 ratio

Sample 2
Target: Hepatocyte nuclear factor 3-alpha (Foxa1, Mus musculus, UniProt P35582, residues 1-468, full length assumed)
Technique: EMSA with sequencing
Form: double-stranded DNA, one strand shown
Sample: in vitro
Concentration: 10 and 20 nM
Notes: whole designed probe, mean of two concentrations, ends assumed
Baseline: negative control set to 0
Direction: higher = stronger binding
Endpoint: normalised bound fraction
Shared flanks, not repeated: GTGAGCGGTGCCCATTGATGGGGAAC … TTTCACTGGGATCGTGGGGAC
Target sequence (chain): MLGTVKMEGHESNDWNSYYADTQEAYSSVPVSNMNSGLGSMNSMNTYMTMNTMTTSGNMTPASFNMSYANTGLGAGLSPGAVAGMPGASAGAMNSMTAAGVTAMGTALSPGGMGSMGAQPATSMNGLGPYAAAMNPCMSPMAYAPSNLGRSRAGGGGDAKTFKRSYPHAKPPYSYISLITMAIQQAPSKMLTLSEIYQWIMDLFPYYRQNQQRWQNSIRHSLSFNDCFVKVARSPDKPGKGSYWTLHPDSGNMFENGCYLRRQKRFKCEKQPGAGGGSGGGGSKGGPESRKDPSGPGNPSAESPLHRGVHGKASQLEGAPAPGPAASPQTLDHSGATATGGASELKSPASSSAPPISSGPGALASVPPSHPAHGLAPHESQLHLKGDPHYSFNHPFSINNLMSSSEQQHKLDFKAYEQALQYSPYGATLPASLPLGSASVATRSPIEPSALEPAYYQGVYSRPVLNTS
TAAAAGCTGGTGAAATCTGAATAAGGTCTGTACCTGAGTTAAGAGGACTGTATCAATGACCATTTCCTGGTTTTGACAGTGTACTGTGGTTATGTAAATATGGTTATGTGTATGTATCACTGGGGAAGCTGGGGAAGCATACATGGGAACTTTATGACTGTGCAACGTCTTGTGAGTCAACTACCTCAAATTA: 0.362 ratio
CATGTTCCAAGAGAAGAGAAGGTAAAGCAGTGTCTATGTTACAAACAAAAAGGAACTGAGCTACAAGACTGAAAAACTGAAAGAAACAGCAATGTAATCTAGCCGTTTACTTGACATCATAAATGTATCTTTGGCTTTCTACTCCTCTCCCTCAAAAAAAAGGAAAGAAAACGTATCAAAATAGGTTAGGCAG: -0.0282 ratio
AATAGAATAAAAAAAATAGATTACACCATTTTAACAAATAGAGTCTATCACATAGTGTGAATGTGTGCCTGAATGTATGCACTGAGTCATAATATAAACATGCGTTTTCTGTGGGTTGTGGTCACTGCATGAAGGGAATTATCTGAGATCACTTGGCTATAGGGAAGTTAGACTTCATGGTTATTGTCTACTA: 0.161 ratio
CTGGCCTATCTCCCACCCCTAATGTCCCACACCAGTTCCTGATCTCCTGCCCCACCCCTCCTGCACCCTGCCCCTTCTCAGGTGACTCACTGTGTCAACATCCTTGAAGGAATGATTTCTGGTTCATGGCCCCAGAGCTGGAGCTTTGGAAGGATAATGGGAAAAGCAGCCAGGGTCCCTGCCCTCAAGAGAC: 0.253 ratio
GTGGAAATGACTATTCATTATGCGGAAGAATAAGACTTTATAAGAATAGTATTTCCCTAAGCAGGCACAGCACTTGAGAAGGTTACAGAATACCTGTTTACTCTGCTAACCTAATTCTCTGTCGATTTCTCTTGTCAATGCCTTTTGATATTTTGACACAGAATGTTCTACCTAGGACCACTCTGCTGAATAT: 0.0953 ratio
ATCTTCCCCCTCTTCCTTGCCCCACCAGCTCACCTACGGGGGTTATTTGCACAAAGGAAAATAAATAAAGCCGGCATTCGTTAACGCAGTTCTGGCGCAAACTGCTGTTTGCTCTGCATGAATCATGGTCCTTACGCGACGCCAGGCTCCGGGAGAGCAAAGCACCGTGTCAGGCGCATGATCCGGGGTGGCC: 0.386 ratio
CCTGTTCTGTAAAAGTGTTTGGATTGAGAGAACACGTACAAAATGACAGGATAATAGCAGGTAGATAATATTCATCTTTTTCTCCCAGGTTAATGTAATCTGGGACCTGATTTTACAAGATTTTATAGGCCATGTTTTACATACGTTGATTTTATCTTAATATGAATAAAACTTAACATATGTGGAGACATTA: -0.021 ratio
CAAGTTTGTGGTCCAGGAGCAACAGGTTATGCCATACAGCCTAGGTGTGTAGTAGGCTACACACCGTCTATGTTTGTGTTGTACACTCTACAATGTTTGCACAACCATGACTCATTGATGAAATCTTCTCAGAACATACCCCTGTTGTTAAGCGATACATGACTGTACTTTTTTTAAAAAGTCCAAGGATATA: 0.438 ratio

Sample 3
Target: PABPC1L2, full length, GST fusion (mouse, UniProt A0ABA7IW68)
Technique: RNAcompete
Form: RNA
Sample: in vitro
Concentration: 20 nM
Notes: 7-mer, probes averaged, single round
Baseline: mean of 7-mers
Direction: higher = stronger binding
Endpoint: 7-mer Z-score
Residues (chain): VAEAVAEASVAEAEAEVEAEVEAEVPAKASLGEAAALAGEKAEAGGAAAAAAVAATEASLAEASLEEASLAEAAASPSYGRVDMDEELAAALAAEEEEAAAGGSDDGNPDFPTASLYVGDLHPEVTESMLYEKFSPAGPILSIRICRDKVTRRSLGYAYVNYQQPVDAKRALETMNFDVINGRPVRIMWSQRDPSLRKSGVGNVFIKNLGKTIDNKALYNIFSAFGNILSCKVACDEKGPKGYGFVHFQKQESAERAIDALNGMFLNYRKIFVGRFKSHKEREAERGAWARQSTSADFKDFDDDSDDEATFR
CCCCCUC: -0.559
UUAAACU: 0.149
AUCAAAC: 0.247
CCCUCAG: -0.264
GAGGAGA: 0.167
UAUCCGA: -0.206
UCUCUAA: -0.175
ACACUAG: -0.00108
AGGGAUC: 0.305
AGACAUG: -0.0047
AGGCCAA: 0.184
GCGUGGG: 0.198
GUCAAGG: -0.117
GAAGCGA: 0.0515
GCUUAUC: -0.322
CAAUCGA: -0.0264
UGGUUCC: -0.159
ACGACCA: 0.135
UUCCCCU: -0.425
AAAGAAU: 2.03
UCGUCGC: -0.583

Sample 4
Target: Sal-like protein 4, full length isoform B (SALL4, Homo sapiens, UniProt Q9UJQ4-2, residues 1-616)
Technique: universal PBM
Form: double-stranded DNA, one strand shown
Sample: in vitro
Concentration: not given
Notes: 8-mer, flanks averaged, mean of replicates
Direction: higher = stronger binding
Endpoint: E-score
Residues (chain): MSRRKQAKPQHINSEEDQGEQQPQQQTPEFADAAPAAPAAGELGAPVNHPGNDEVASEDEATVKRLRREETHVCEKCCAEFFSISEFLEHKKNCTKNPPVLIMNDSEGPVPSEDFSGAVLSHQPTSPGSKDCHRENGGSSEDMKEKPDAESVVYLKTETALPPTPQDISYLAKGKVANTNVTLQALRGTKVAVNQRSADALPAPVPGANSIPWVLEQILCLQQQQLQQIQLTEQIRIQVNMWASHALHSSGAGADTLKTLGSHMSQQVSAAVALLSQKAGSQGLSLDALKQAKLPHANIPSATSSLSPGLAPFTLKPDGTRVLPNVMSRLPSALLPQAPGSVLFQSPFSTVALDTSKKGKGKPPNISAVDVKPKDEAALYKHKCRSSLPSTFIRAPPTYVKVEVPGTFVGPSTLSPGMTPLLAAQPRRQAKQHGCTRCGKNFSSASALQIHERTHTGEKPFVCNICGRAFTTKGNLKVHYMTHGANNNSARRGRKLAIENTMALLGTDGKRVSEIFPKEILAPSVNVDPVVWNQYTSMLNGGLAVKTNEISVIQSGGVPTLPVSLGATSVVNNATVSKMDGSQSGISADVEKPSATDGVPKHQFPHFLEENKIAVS
AAACTCCA: 0.12
ATGGTCAA: 0.125
ACCAGAGG: -0.163
AAGTATCC: -0.0192
AAATTATT: 0.465
GCTTGTCC: -0.171
ATGCCGTG: -0.129
CACATGTC: -0.0357
CCGTTCGC: -0.153
ACATCACC: -0.0442
TCAATGCA: 0.128
ATGGTTAG: 0.0156
AGCATAAA: 0.293
CGTTTGAC: 0.0001
ATGGGTCA: -0.0138
GACACGAC: 0.0405
ACCACAGT: -0.0155
CGGTTTAC: -0.0447
CTGGGAGC: -0.241
ACGCCCTA: -0.168
AGTATCTC: 0.0528
GCTGCTCC: -0.363
AATCTTCG: 0.233
AAACGAGG: -0.163
TAAGCGTA: 0.0889

Sample 5
Target: Histone acetyltransferase KAT6A, both winged helices, GST fusion (KAT6A, Homo sapiens, UniProt Q92794, residues 1-181)
Technique: protein binding microarray
Form: double-stranded DNA, one strand shown
Sample: in vitro
Concentration: not given
Notes: 8-mer, flanks averaged, mean of 2 arrays, mostly near background
Baseline: not given
Direction: higher = stronger binding
Endpoint: E-score
Residues (chain): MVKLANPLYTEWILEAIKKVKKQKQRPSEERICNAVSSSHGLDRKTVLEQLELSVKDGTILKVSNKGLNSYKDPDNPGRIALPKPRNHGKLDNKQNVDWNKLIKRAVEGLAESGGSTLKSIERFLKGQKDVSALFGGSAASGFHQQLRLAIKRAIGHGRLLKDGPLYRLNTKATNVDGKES
CTGAGGGA: -0.209
CGTCTAGA: 0.191
GAGTAAAC: -0.0565
AAACGTGC: -0.0355
AGGTACAA: -0.208
GAATGAGC: -0.0978
CAACCTTC: -0.163
ATCACACC: -0.0878
AGATCGTC: -0.12
GCCGGGGA: 0.168
AGGTAGGG: -0.366
CAATGTAC: -0.115
ATGGTTAC: -0.0567
CTCTCGCC: -0.162
TCAAACAA: 0.024
AATGCTGA: -0.187
GGGTATGA: 0.0561
CGCTAACC: 0.216
CATATACA: -0.0648
CATCGTAA: 0.118
CTGATGGA: -0.0193
GTCCTGTA: 0.0548
CTAGGCGA: -0.0221
GTCGCGGA: 0.246
GACACTCC: -0.0704

For quick reference, copied from above (sample 5):
CTAGGCGA: -0.0221
CATCGTAA: 0.118
GTCGCGGA: 0.246
CTCTCGCC: -0.162
ATGGTTAC: -0.0567
AGATCGTC: -0.12
CTGATGGA: -0.0193
CAATGTAC: -0.115
GTCCTGTA: 0.0548
